Published values from different studies.
Each line is one published result; not all experiments were run side by side. Numbers after ± are the reported error.
OPRL1: Nociceptin receptor (OPRL1, Homo sapiens, UniProt P41146)
dfrA: Dihydrofolate reductase (dfrA, Bacillus anthracis, UniProt Q81R22)

By UniProt entry, the sequences of proteins in these tests, tags left out. Chains listed by the source or under a name are the forms on record and can include a tag or linker. Residues count along the entry.
UniProt P41146, whole entry: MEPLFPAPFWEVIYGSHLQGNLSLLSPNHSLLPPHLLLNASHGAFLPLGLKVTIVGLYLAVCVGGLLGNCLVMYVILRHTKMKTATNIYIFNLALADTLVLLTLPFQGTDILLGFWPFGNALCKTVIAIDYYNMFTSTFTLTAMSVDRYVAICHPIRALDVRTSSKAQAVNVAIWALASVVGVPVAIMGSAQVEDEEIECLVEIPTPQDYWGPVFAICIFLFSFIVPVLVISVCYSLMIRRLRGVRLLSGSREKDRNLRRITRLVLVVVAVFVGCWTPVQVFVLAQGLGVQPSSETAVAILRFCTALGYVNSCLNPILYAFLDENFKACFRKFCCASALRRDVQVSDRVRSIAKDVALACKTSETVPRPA
UniProt P08510, 1-655 with tags or gaps DEL6-46: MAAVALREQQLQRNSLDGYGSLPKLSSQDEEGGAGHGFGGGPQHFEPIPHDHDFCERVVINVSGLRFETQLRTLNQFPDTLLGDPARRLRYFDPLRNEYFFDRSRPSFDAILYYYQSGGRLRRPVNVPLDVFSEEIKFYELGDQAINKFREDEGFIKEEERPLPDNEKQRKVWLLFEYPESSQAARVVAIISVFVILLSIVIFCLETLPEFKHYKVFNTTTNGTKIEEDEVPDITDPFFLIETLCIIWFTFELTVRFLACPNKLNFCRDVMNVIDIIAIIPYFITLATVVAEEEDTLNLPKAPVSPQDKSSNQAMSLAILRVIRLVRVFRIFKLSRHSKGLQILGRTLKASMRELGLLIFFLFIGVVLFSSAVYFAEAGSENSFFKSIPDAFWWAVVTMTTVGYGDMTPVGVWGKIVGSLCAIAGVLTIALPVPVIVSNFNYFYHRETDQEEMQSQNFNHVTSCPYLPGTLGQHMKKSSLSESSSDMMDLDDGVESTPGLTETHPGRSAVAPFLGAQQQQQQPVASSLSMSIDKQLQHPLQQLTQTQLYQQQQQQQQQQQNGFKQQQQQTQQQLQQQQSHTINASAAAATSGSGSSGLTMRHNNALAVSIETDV

Structure (SMILES)	target or system	assay	test system	conditions	how to read	measurement	value
COC(=O)CN1CN(c2ccccc2)C2(CCN(Cc3cccc4ccccc34)CC2)C1=O	OPRL1	GIRK channel activation, agonist	AtT20 expressing OPRL1	180 s		EC50	0.056 ± 0.0093 µM
CCC(CC)C1c2ccccc2C=NN1C(=O)/C=C/c1cc(Cc2cnc(N)nc2N)cc(OC)c1OC (racemic)	dfrA	inhibitor				Ki	0.0125 µM
CC[C@H](C)[C@@H]1NC(=O)[C@H](CCCNC(=N)N)NC(=O)[C@@H](N)CSSC[C@@H]2NC(=O)[C@@H]3CSSC[C@@H](C(=O)N[C@H](C(=O)O)C(C)C)NC(=O)[C@H](CCCCN)NC(=O)[C@H](CC(N)=O)NC(=O)[C@H](Cc4ccccc4)NC(=O)[C@H](CCCNC(=N)N)NC(=O)[C@H](CC(N)=O)NC(=O)[C@H](CSSC[C@H](NC(=O)[C@H](CCCCN)NC(=O)[C@H](CCC(N)=O)NC(=O)[C@H](CC(N)=O)NC(=O)[C@@H]4C[C@@H](O)CN4C1=O)C(=O)N[C@@H](Cc1ccccc1)C(=O)N[C@@H](CCC(N)=O)C(=O)N[C@@H](Cc1c[nH]cn1)C(=O)N[C@@H](CC(C)C)C(=O)N[C@@H](CC(=O)O)C(=O)N[C@@H](CC(=O)O)C(=O)N3)NC(=O)[C@H](CCCCN)NC(=O)[C@H](CCCNC(=N)N)NC(=O)[C@H](CO)NC2=O	Sh (Drosophila melanogaster, UniProt P08510, del6-46)	potassium current, two-electrode voltage clamp	Xenopus oocytes	zero voltage		Kd	0.24 ± 0.03 µM
Cc1ccc(OCCN(C)C)cc1C(=O)N[C@H](C)c1cc(-c2cnn(CCO)c2)cc(-c2cnn(C(F)F)c2)c1	Replicase polyprotein 1ab, papain-like protease (rep, Severe acute respiratory syndrome coronavirus 2, UniProt P0DTD1)	protease activity, inhibitor	FlipGFP reporter cells			EC50	> 10 µM
c1ccc(Cn2cnc3ccccc32)cc1	Enoyl-[acyl-carrier-protein] reductase [NADH] (Francisella tularensis subsp. tularensis, UniProt Q5NGQ3)					IC50	> 100 µM
COc1cc(Cc2cnc(N)nc2N)cc(/C=C/C(=O)N2N=Cc3ccccc3C2c2ccccc2)c1OC (racemic)	dfrA	inhibitor				Ki	0.005 µM
CS(=O)(=O)C=CCNC(=O)c1ccc2[nH]c(=O)n(C3CC3)c2c1	Polyprotein P1234, nsP2 protease (Chikungunya virus, UniProt Q5XXP4)	time-dependent inhibition				Ki	19 ± 2 µM
COc1ccc(S(=O)(=O)Nc2cccc(C(=O)NC3CCN(c4ncnc5[nH]cnc45)CC3)c2)cc1	SARS-CoV-2		Wuhan-Hu-1	200 µM	reference: untreated infected cells	relative infection	15.1%
CNC(=O)CC1C(=O)N(C2CCN([C@H]3CC[C@@H](C(C)C)CC3)CC2)c2ccccc21 (some centres unmarked)	OPRL1	binding				Ki	0.00113 µM
O=C(NC1CCN(c2ncnc3[nH]cnc23)CC1)c1cccc(NS(=O)(=O)c2ccc(Cl)cc2)c1	SARS-CoV-2		Wuhan-Hu-1	66.67 µM	reference: untreated infected cells	relative infection	19.3%
COc1cc(Cc2cnc(N)nc2N)cc(/C=C/C(=O)N2N=Cc3ccccc3C2C=C(C)C)c1OC (racemic)	dfrA	inhibitor				Ki	0.0082 µM
CC[C@H](C)[C@H](NC(=O)[C@H](C)NC(=O)[C@H](CCC(=O)O)NC(=O)[C@H](CCC(=O)O)NC(=O)[C@H](CC(C)C)NC(=O)[C@H](CCCCN)NC(=O)[C@H](CCCCN)NC(=O)[C@H](CCSC)NC(=O)[C@H](CCC(=O)O)NC(=O)[C@H](Cc1ccc(O)cc1)NC(=O)[C@H](CCC(=O)O)NC(=O)[C@H](CC(C)C)NC(=O)[C@H](CC(=O)O)NC(=O)[C@H](CC(C)C)NC(=O)[C@H](Cc1ccccc1)NC(=O)[C@H](Cc1ccccc1)NC(=O)[C@@H](NC(=O)[C@H](CC(N)=O)NC(=O)[C@@H](NC(=O)[C@H](CCC(N)=O)NC(=O)[C@H](CC(=O)O)NC(=O)[C@H](CC(C)C)NC(=O)[C@@H](N)CO)[C@@H](C)CC)C(C)C)C(=O)N[C@@H](CCCCN)C(=O)N[C@@H](CCCCN)C(=O)N[C@@H](CC(C)C)C(=O)N[C@@H](CCC(=O)O)C(=O)N[C@@H](CCC(=O)O)C(=O)N[C@@H](CO)C(=O)N[C@@H](Cc1ccc(O)cc1)C(=O)N[C@H](C(=O)N[C@@H](CC(=O)O)C(=O)N[C@@H](CC(C)C)C(=O)N[C@@H](CCCCN)C(=O)N[C@@H](CCC(=O)O)C(=O)N[C@@H](CC(C)C)C(=O)O)[C@@H](C)CC	Spike glycoprotein, Beta variant (Severe acute respiratory syndrome coronavirus 2, UniProt P0DTC2)	cell-cell fusion, inhibitor, luciferase fusion	293T donor, Huh-7 target	16 h, 37 °C		IC50	0.121 µM
CC[C@H](C)[C@@H]1NC(=O)[C@@H]2CSSC[C@H](NC(=O)[C@H](CCCNC(=N)N)NC(=O)[C@@H]3CSSC[C@H](NC1=O)C(=O)N[C@@H]([C@@H](C)O)C(=O)N[C@@H](CCCNC(=N)N)C(=O)NCC(=O)N[C@@H](Cc1ccccc1)C(=O)N3)C(=O)N[C@@H](CC(C)C)C(=O)N[C@H]1CSSC[C@H](NC(=O)[C@H](C(C)C)NC(=O)CNC(=O)[C@H](CCCNC(=N)N)NC(=O)[C@H](CCCNC(=N)N)NC1=O)C(=O)N[C@@H](CCCNC(=N)N)C(=O)N2	Lethal factor (Bacillus anthracis, UniProt P15917)	enzyme activity, inhibitor				Ki	0.381 ± 0.021 µM
CCC1(C2OC(C3OC(O)(CO)C(C)CC3C)CC2C)CCC(C2(C)CCC3(CC(O)C(C)C(C(C)C(OC)C(C)C(=O)O)O3)O2)O1 (centres unmarked)	L/N (Lassa virus, UniProt O09705+P13699)	viral replication, Gaussia luciferase reporter				EC50	0.27 µM

Repeated from above:
Structure (SMILES)	target or system	assay	test system	conditions	how to read	measurement	value
CC[C@H](C)[C@H](NC(=O)[C@H](C)NC(=O)[C@H](CCC(=O)O)NC(=O)[C@H](CCC(=O)O)NC(=O)[C@H](CC(C)C)NC(=O)[C@H](CCCCN)NC(=O)[C@H](CCCCN)NC(=O)[C@H](CCSC)NC(=O)[C@H](CCC(=O)O)NC(=O)[C@H](Cc1ccc(O)cc1)NC(=O)[C@H](CCC(=O)O)NC(=O)[C@H](CC(C)C)NC(=O)[C@H](CC(=O)O)NC(=O)[C@H](CC(C)C)NC(=O)[C@H](Cc1ccccc1)NC(=O)[C@H](Cc1ccccc1)NC(=O)[C@@H](NC(=O)[C@H](CC(N)=O)NC(=O)[C@@H](NC(=O)[C@H](CCC(N)=O)NC(=O)[C@H](CC(=O)O)NC(=O)[C@H](CC(C)C)NC(=O)[C@@H](N)CO)[C@@H](C)CC)C(C)C)C(=O)N[C@@H](CCCCN)C(=O)N[C@@H](CCCCN)C(=O)N[C@@H](CC(C)C)C(=O)N[C@@H](CCC(=O)O)C(=O)N[C@@H](CCC(=O)O)C(=O)N[C@@H](CO)C(=O)N[C@@H](Cc1ccc(O)cc1)C(=O)N[C@H](C(=O)N[C@@H](CC(=O)O)C(=O)N[C@@H](CC(C)C)C(=O)N[C@@H](CCCCN)C(=O)N[C@@H](CCC(=O)O)C(=O)N[C@@H](CC(C)C)C(=O)O)[C@@H](C)CC	Spike glycoprotein, Beta variant (Severe acute respiratory syndrome coronavirus 2, UniProt P0DTC2)	cell-cell fusion, inhibitor, luciferase fusion	293T donor, Huh-7 target	16 h, 37 °C		IC50	0.121 µM
CCC(CC)C1c2ccccc2C=NN1C(=O)/C=C/c1cc(Cc2cnc(N)nc2N)cc(OC)c1OC (racemic)	dfrA	inhibitor				Ki	0.0125 µM
